Measured values pooled from the literature.
Protocols differ between the studies behind these lines. Numbers after ± are the reported error.

| SMILES | tested on | assay | system | conditions | how to read | endpoint | value |
| --- | --- | --- | --- | --- | --- | --- | --- |
| CC1=CC(=O)c2c(O)cccc2C1=O | A549 | MTT | – | – | reference: IC50 MRC-5 over IC50 A549 | selectivity index | 0.37 |
| COc1c(C)c2c(c(O)c1C/C=C(\C)CCC(=O)O)C(=O)OC2 | A549 | cell proliferation | lung cancer | – | – | IC50 | 0.562 µM |
| O=[N+]([O-])c1nccn1CC(O)CNCCBr (centres unmarked) | A549 | cell viability, SRB | – | anoxic 4 h, then oxic 120 h | – | IC50 | 38.8 ± 6.8 µM |
| CC(C)N1CCC(NC2CCN(c3cccc(-c4cc5cc(F)ccc5[nH]4)c3)CC2)CC1 | A549 | – | – | – | – | GI50 | 1.72 µM |
| COC(=O)C1CCN(C(=O)c2ccc(NCc3cnc4nc(N)nc(N)c4n3)cc2)CC1 | A549 | CellTiter-Glo | – | 10 µM | 100 none, 0 cytostatic, -100 cytotoxic | cell growth | 157 ± 3.55% |
| ClCc1ccnc(-c2cc(CCl)ccn2)c1.F[P-](F)(F)(F)(F)F.[Ir+3].[c-]1ccccc1-c1ccccn1.[c-]1ccccc1-c1ccccn1 | A549 | microarray, measured: COX3 (probe 238199_x_at) | – | 3 µM, 24 h | reference: untreated | mRNA fold change | 0.0642 |
| O=c1oc2ccccc2c(O)c1Cc1c(O)c2ccccc2oc1=O | human coronavirus OC43 | virus-induced cell killing | MRC-5 | screen | – | maximum inhibition | 3.57% |
| COc1c(CCC[P+](c2ccccc2)(c2ccccc2)c2ccccc2)cc2c(c1OC)OCO2.[I-] | A549 | NCI60 SRB | – | – | – | GI50 | -5.43 log M |
| Cc1c2ccncc2c(C)c2c1[nH]c1ccccc12 | A549 | – | – | – | reference: CL over A549 | selectivity index | 1.82 |
| CC[C@@H](C)[C@@H](NC(=O)[C@@H](Cc1c[nH]c2ccccc12)NC(=O)[C@@H](CCCNC(=N)N)NC(=O)[C@H](CCC(N)=O)NC(=O)[C@@H]1CCCN1C(=O)[C@H](CCCNC(=N)N)NC(=O)[C@H](CCCNC(=N)N)NC(=O)[C@H](CCCNC(=N)N)NC(=O)[C@H](CCC(N)=O)NC(=O)[C@H](CCCNC(=N)N)NC(=O)[C@H](CCCNC(=N)N)NC(=O)[C@H](CCCCN)NC(=O)[C@H](CCCCN)NC(=O)[C@H](CCCNC(=N)N)NC(=O)CN)C(=O)N[C@H](CCSC)C(=O)N[C@H](Cc1ccc(O)cc1)C(=O)N[C@H](Cc1ccccc1)C(N)=O | A549 | MTT | – | – | – | sublethal dose | 2 µM |
| COC1=CC(c2cc3ccccc3[nH]2)=N/C1=C\c1[nH]c(C)cc1C | human coronavirus OC43 | virus-induced cell killing | MRC-5 | maximum over 10 doses | – | maximum inhibition | 1.2% |
| CCN(CC)c1ccc(C=NNC(=O)CSc2nc3ccccc3c(=O)n2Cc2ccc(S(N)(=O)=O)cc2)c(O)c1 | A549 | NCI five-dose screen | – | – | – | CC50 | > 100 µM |
| CN1CCN(C2(CNC3CCN(c4cccc(-c5cc6cc(F)ccc6[nH]5)c4)CC3)CCC2)CC1 | A549 | – | – | – | – | GI50 | 1.85 µM |
| COc1cc(CCC[P+](c2ccccc2)(c2ccccc2)c2ccccc2)c(OC)c2c1OCO2.[I-] | A549 | NCI60 SRB | – | – | – | LC50 | > -4 log M |

For quick reference, copied from above:
| SMILES | tested on | assay | system | conditions | how to read | endpoint | value |
| --- | --- | --- | --- | --- | --- | --- | --- |
| CN1CCN(C2(CNC3CCN(c4cccc(-c5cc6cc(F)ccc6[nH]5)c4)CC3)CCC2)CC1 | A549 | – | – | – | – | GI50 | 1.85 µM |
| COc1cc(CCC[P+](c2ccccc2)(c2ccccc2)c2ccccc2)c(OC)c2c1OCO2.[I-] | A549 | NCI60 SRB | – | – | – | LC50 | > -4 log M |
